Published values gathered from unrelated publications.
Every numbered part comes from another study and shows a few of its results, in no order.

Block 1 — technique: protein binding microarray; form: double-stranded DNA, one strand shown; medium: in vitro; tested at: not given; relative to: not given; reading: higher = stronger binding
Target: Histone acetyltransferase KAT6A, both winged helices, GST fusion (KAT6A, Homo sapiens, UniProt Q92794, residues 1-181)
Setting: 8-mer, flanks averaged, mean of 2 arrays, mostly near background
Residues (chain): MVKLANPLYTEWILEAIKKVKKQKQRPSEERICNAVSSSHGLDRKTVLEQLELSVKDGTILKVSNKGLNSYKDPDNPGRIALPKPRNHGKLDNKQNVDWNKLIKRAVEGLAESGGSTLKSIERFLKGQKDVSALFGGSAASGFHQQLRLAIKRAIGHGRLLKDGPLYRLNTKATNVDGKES
Sequence	E-score
TGTGACAA	-0.0595
ACACCAAA	-0.0319
AACTTGCT	-0.0914
GCTCCTAA	-0.16

Block 2 — technique: protein-binding microarray; form: double-stranded DNA, one strand shown; medium: in vitro; tested at: 2200 nM top; setting: 60-bp whole probe; with: salmon DNA 0.4 mg/ml; relative to: random background probes; reading: higher = stronger binding; all sequences stand within: GCCTAGCAC … GTCTTGATTCGCTTGACGCTGCTG
Target: Interferon regulatory factor 7, full length, phosphomimetic (IRF7, Homo sapiens, UniProt Q92985, residues 1-503, S471D/S472D/S475D/S476D/S477D/S483D/S484D/S487D)
Construct (chain): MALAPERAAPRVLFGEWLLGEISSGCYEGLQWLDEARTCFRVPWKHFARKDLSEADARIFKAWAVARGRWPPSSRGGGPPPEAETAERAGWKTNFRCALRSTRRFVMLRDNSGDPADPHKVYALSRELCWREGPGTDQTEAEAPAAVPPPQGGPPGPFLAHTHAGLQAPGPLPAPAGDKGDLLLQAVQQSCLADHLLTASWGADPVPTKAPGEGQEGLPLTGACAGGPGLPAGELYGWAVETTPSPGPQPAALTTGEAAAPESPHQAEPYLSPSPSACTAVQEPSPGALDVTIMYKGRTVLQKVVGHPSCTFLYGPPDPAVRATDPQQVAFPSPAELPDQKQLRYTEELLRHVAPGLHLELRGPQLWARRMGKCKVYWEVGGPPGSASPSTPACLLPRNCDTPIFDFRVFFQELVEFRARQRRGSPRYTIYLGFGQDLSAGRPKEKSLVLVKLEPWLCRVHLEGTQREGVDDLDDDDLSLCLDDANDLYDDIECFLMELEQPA
Sequence	fitted relative affinity [z-score]
TCAAGTTTTACTTTCTAACTGTGCTAG	2.63
TCAAGATTTTTTTTCCTACTGTGCTAG	0.766
CTTGGGCTCTTCTCTGAAGACGTGCTA	-0.65
GACGGTGTCGGTATCGGGACGTGCTAG	-0.633
TGGACTGCACAAGGGCCAGTGTGCTAG	-0.496

Block 3 — technique: universal PBM; form: double-stranded DNA, one strand shown; medium: in vitro; tested at: 600 nM; reading: higher = stronger binding
Target: Sal-like protein 4, full length isoform A (SALL4, Homo sapiens, UniProt Q9UJQ4, residues 1-1053)
Chain of UniProt Q9UJQ4 (whole entry, looked up): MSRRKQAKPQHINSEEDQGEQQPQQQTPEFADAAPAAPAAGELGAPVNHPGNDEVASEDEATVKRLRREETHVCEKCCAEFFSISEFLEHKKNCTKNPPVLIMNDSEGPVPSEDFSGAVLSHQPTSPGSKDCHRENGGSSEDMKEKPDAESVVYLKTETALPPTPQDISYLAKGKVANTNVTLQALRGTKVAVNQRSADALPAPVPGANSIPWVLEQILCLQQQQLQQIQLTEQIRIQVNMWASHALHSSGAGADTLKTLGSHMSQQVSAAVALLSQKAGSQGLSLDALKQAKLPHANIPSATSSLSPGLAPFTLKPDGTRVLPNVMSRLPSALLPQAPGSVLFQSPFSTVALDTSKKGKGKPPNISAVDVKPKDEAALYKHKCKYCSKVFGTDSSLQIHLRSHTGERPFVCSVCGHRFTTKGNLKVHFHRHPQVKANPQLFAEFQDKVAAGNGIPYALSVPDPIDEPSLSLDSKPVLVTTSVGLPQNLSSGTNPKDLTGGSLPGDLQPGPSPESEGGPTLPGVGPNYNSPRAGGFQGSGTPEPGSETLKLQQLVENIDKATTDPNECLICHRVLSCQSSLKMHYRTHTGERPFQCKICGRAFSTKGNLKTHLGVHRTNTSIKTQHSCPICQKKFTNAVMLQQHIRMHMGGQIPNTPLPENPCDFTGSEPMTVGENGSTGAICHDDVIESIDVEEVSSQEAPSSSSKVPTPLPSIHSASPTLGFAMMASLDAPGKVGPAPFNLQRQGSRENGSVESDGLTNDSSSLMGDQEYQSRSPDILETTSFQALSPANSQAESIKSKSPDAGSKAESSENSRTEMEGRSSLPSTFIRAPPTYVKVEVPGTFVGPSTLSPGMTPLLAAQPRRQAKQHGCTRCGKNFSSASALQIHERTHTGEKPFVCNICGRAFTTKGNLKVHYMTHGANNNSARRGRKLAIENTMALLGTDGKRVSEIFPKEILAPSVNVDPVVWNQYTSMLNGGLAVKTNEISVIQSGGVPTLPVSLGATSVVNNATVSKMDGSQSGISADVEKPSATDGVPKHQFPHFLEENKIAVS
Setting: 8-mer, flanks averaged, mean of replicates
Sequence	E-score
CCCACCAG	-0.268
GTAGTAAC	0.00971
ATTGCGTA	0.14
AACGAGCG	-0.018

Mixed results
Substance	target	assay	test system	setting	how to read	quantity	value
PhoQ, residues 284 288 289 292 302 303 NLSRDF	PhoP, residues 12 14 15 18 19 NMSSL (Escherichia coli, UniProt P23836)	Sort-seq, refers to: YFP reporter	E. coli	PhoQ-PhoP variant library, with: 10 µM Mg2+	relative to: high Mg2+ state, higher = stronger signaling	fold induction	6.69

Excerpt of the above (block 2):
Sequence	fitted relative affinity [z-score]
TGGACTGCACAAGGGCCAGTGTGCTAG	-0.496
